Experimental data of several laboratories.
Each numbered part is a random draw from the data of one study; scales do not carry over between parts.

Set 1
Target: Histone acetyltransferase KAT6A, winged helix 2, GST fusion (KAT6A, Homo sapiens, UniProt Q92794, residues 85-181)
Method: protein binding microarray
Molecule type: double-stranded DNA, one strand shown
Medium: in vitro
Concentration: not given
Notes: 8-mer, flanks averaged, mean of 2 arrays, mostly near background
Baseline: not given
Direction: higher = stronger binding
Target sequence (chain): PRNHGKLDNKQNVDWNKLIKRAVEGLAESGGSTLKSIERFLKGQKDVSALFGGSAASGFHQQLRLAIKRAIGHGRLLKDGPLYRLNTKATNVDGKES
Sequence	E-score
TACCCCAA	-0.132
AGAGTTAT	-0.127
CAAAGATC	0.104
AAACACGT	-0.237
CTCCGTTA	0.0835
CGCATGAA	0.0186
ATATATTG	-0.178
GCGGGAGC	0.1
AGAGGAAC	-0.129
AATACCCT	-0.101
GCACTGGC	0.115
ATTGGCCC	-0.125
GACCGGTC	0.118
ACCACACT	-0.0742
CACAGAGG	0.067
GTCAATCA	-0.229
AGGTGATC	-0.0197
GGCTGAGA	-0.123
GCTTGACA	0.0281
ATACCAAC	0.003
ACACCTGT	-0.186
CAAAAAGC	0.11
CCGATGGA	-0.104
CGTGTTTC	-0.0517
ATGAACCG	0.00863

Set 2
Target: Interferon regulatory factor 5, full length, phosphomimetic (IRF5, Homo sapiens, UniProt Q13568-2, residues 1-514, S451D/S453D/S456D/S462D)
Method: protein-binding microarray
Molecule type: double-stranded DNA, one strand shown
Medium: in vitro
Concentration: 940 nM top
Notes: 60-bp whole probe
With: salmon DNA 0.4 mg/ml
Baseline: random background probes
Direction: higher = stronger binding
All sequences stand within: GCCTAGCAC … GTCTTGATTCGCTTGACGCTGCTG
Sequence	fitted relative affinity [z-score]
TTAGATATCAGTATCCATTAGTGCTAG	0.408
TTGGATTTCGGGTATCGATTAGTGCTA	3.81
TTATATATCAGTCTCGATTAGTGCTAG	3.41
TGGTATTTTTTTGTAATCGAGTGCTAG	1.15
CTTCCCCTCTAGGTTCTCTGAGTGCTA	0.299
TTACGTTTCCTTCTCCTTTAGTGCTAG	2.18
TAAGGTATCCTTATCCTTTAGTGCTAG	0.275
TTAGGATTGGACACTGGGTTAGTGCTA	-0.46
AGCCATCTGCAGCAGGCCCCGTGCTAG	-0.137
GACGAGCTGAGTTTCGAGACGTGCTAG	3.98
TCAATCGTCCCTTTGAGACTGTGCTAG	-0.105
GACGGCATCGACTATCGGGACGTGCTA	-0.716
TTAGGACTGGACTATCGGTTTGTGCTA	-0.217
TCACAATTTGCTTTAGTACTGTGCTAG	0.644
TCATTTTTCCTAATTGAACTGTGCTAG	0.73
GACGATTTTAGTCTCGAGACGTGCTAG	2.23
GACGGTTACCTTTTCCTGACGTGCTAG	0.59
GACGGACTGGGACTGGGGACGTGCTAG	-0.596
GACGGTTTCGGTTACGGGACGTGCTAG	13.8
GAGGGTTCCGGTTTCGGGACGTGCTAG	4.53
CTGCCTAACATGCTTCGAGATGTGCTA	0.0352
GACGGACTGCTTATCTTGACGTGCTAG	-0.277
TCACATGTTGCTCTCCGACTGTGCTAG	0.312
GACGGTTTCGACTTACGGGACGTGCTA	7.91
TTAGGTTTCGGTTTCGTTTAGTGCTAG	15.9

Set 3
Target: RNA binding protein fox-1 homolog 2, RRM domain, GST-SBP tag (RBFOX2, Homo sapiens, UniProt O43251-10, residues 100-194)
Method: RNA Bind-n-Seq
Molecule type: RNA
Medium: in vitro
Concentration: 365 nM
Notes: natural RNA segment, single round, ends assumed
Baseline: no-protein control
Direction: higher = stronger binding
Construct (chain): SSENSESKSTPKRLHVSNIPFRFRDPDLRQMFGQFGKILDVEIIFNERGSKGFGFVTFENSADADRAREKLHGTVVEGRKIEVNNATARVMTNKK
Sequence	RBNS enrichment (R)
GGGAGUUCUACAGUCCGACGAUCUGAUUUUAUCAAAACUUCUAAAAUUUAAAUUACGUGGUAAAAGAUCUGUAAAAGGCUGCAUAAAUGUUAGUUGGCACAUAAAGACAAUUGUAGAAGUUGAAAAAUGAUUGUGGAAUUCUCGGGUGCCAA	0.813
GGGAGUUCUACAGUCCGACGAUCCUGGAUCUAAGCUCAGGAGUACACAUAGCAGCUAUGGGUAUGGGUGUCCUCCUCUGGUGUAACUGUGAGACUAAGUGAUAGGAAGAAGUAAAGCCUUCAUAGCGAGUGGAUGGAAUUCUCGGGUGCCAA	0.784
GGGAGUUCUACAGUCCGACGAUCUCUGGGACAGGGGGCUGCCACUAAGCACACACACUCCUCCUAUUUUCCAGAAGUGAACAUUUCAUGUUUAGGUGCCGAAUGUGAAUCUGGGUGGGGAGAGCGGGAGCCCUUGGAAUUCUCGGGUGCCAA	0.482
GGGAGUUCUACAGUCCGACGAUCGGCAAAUAAGACCCCACCCCUCCCUGCAGCUUCACAGGGACGCUUCCUUCCCUCCCCGCAACCACCCCAGGCUCCCCUGGGAGGCUGCAGUUGUGGUACACGUCCCCGGUUGGAAUUCUCGGGUGCCAA	0.518
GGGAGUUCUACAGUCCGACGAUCCCUCCCAUUCCUCUGGUCCCUGCCUUGGUCCCUUGCCUGGGAAGAGGGCGAGGAGGCCAGUGGUGGGGACGCAGAGGGUCCUCAGAGCAGGAGUGACAAGGGAGGAAAGAUGGAAUUCUCGGGUGCCAA	0.581
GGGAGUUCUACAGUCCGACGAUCGAUCCCCAGUUUUGUCCCUCCACUUGGGCACACGAGGUCUCAGGGGUCCUCAACCUGGGUCUGUGCCCCCAGCUGUGCCCAGCACCACGGGACCUCCACAGUCCAAUGGCUGGAAUUCUCGGGUGCCAA	0.441
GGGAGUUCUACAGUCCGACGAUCUAUGGGAAGUAAUGGGUCGCUCGCCGCCCAGAAGAGUUAACAAAAAACGGCAGCACCUCACGGCUGUCUUUCUAGGAUCCUCCAUUAUUCCUUAGAAGCAAGGACCUGGUUGGAAUUCUCGGGUGCCAA	0.32
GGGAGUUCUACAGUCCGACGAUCUUUUGUUGUCCUUCUUAAUGUUCUCAGUCAAAUAAAUGAGUGAGCUGGUUUCGGCUGCUCUUGGAAUGGUGAGCCUCUUCUUUAUGGGUAGACUGGGCCUUUGGAACUUGUGGAAUUCUCGGGUGCCAA	0.432
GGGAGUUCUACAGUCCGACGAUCUCAUUGUCUUUUCCUGUGUAAAUGUUAAAUGACAAUACCAUCGGUGAAGGCCCUCCACAGUGGACAGAGCAACUUCCUUUCCAGCCUCUGCUGGUAGCAUGCUGCAGCUUUGGAAUUCUCGGGUGCCAA	3.76
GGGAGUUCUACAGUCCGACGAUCUCAUGUACAGUUUCCAGAAUUGUCACUGUGCAUUCAAAAGUAAUGAAUCUAACAGACAUUUGAUUUAAUGUACACUCCCUUUUGCUUAUAGUGUGCAUUUUUUUUGGAGGUGGAAUUCUCGGGUGCCAA	0.573
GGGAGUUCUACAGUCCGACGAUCGCAGCUUGGAGCCCAGGUAGGGGGCAGAGCUGUCCUCAGCUGCACUGCGGCCUGGUGGCAGUGUGGGGAGUCACACUUCUGUCCACCUGGCCUCCUCUCGCCUGGCCGCCUGGAAUUCUCGGGUGCCAA	0.351
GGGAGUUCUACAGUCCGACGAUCUUUUUUUCUUUUCUUCUUUAAGUAGCUGAAUGUAUAUAUCAGGGAGGAAGAAGCAAGCAAAACUGAGCUUGCCUUCUUCAAGAGUGACCCUUUCGGGCUCCUUUUUUAGGUGGAAUUCUCGGGUGCCAA	0.398

Set 4
Target: Centromere-binding protein 1, full length, His-tagged (CBF1, Saccharomyces cerevisiae, UniProt P17106, residues 1-351)
Chain of UniProt P17106 (whole entry, looked up): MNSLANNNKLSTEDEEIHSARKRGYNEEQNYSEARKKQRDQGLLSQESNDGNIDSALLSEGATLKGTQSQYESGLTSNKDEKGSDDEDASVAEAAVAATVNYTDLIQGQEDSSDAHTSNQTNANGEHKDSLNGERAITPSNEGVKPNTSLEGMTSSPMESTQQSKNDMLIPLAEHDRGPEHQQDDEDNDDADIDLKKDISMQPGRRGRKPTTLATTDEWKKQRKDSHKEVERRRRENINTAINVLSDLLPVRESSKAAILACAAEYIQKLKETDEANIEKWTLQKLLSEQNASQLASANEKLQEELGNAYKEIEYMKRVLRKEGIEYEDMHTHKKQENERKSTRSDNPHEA
Method: competition protein-binding microarray
Molecule type: double-stranded DNA, one strand shown
Medium: in vitro
Concentration: 2 µM
Notes: whole 60-bp probe, lowest competitor level
With: Pho4 competitor, 0.05 µM
Direction: higher = stronger binding
Sequence	fluorescence intensity
TAGGAACTCCTTTGCTGCGTGGCCGATTCCTCTGTAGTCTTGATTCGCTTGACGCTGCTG	69.4 a.u.
AAATTACTAAGTTTTCACGTGTTGTACCCCGTATGAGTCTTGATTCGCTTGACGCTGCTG	1020 a.u.
CGTCCTAGTGATTTGCACGTGTTTTCCATGAGGAAGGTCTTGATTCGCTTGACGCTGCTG	1940 a.u.
TGCGCAACAACTTGTCACACAACTTTATGTCTAGAAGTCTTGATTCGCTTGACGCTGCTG	103 a.u.
CTTCTGTAAATTTGTCACAAAACTTGACGCGCCCCGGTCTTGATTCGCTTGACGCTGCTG	102 a.u.
CATACCCAACCTTGTCACGCAACTTAAGATATTTGTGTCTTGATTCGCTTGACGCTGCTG	135 a.u.
AATATTAAAGTTCACAACGTGAAGACCTTCCTTTCTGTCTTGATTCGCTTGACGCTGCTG	91.7 a.u.
CATACCCAACCTTGCGTTGTGGGTGAAGATATTTGTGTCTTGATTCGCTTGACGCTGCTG	68.7 a.u.
CTGCCTCTTTTCCAGCATGTGGCAACTGTCCCGACGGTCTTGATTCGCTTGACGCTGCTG	83.8 a.u.
GTCTTGTCTCATTGGCAGGTGGGTGTCCCCACTTCAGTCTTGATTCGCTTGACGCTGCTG	78 a.u.
TTTCATTCAGACCAACACGTGGTGAATTCACATAGTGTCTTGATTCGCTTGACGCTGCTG	1350 a.u.
GCTCAAGCTCAAACACACGTGCAAACAAACCCCCAAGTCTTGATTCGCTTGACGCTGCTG	1620 a.u.
ATACAACAAAGCGACCGCGTGACGGTTAGACAAGACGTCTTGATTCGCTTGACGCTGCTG	404 a.u.
CTAACGAAGGTTTGTAGAGTGGGTGACAAGCCAAGTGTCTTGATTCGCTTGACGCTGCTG	54.9 a.u.
CTTTTAGTAAACCGTCACGTGCAAAAGATTCTTTAGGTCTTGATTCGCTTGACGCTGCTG	7160 a.u.
TTCAGGGTTGTTCATCACAGCAATAAAAGTATCAACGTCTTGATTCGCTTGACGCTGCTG	76.7 a.u.
CAAATGTTGCCTTTGCACGTGAAGGTGCATTTGTATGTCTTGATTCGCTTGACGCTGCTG	773 a.u.
CTTGGCGTTGGTTATTGCGTGCTTTTCAAAAGACTCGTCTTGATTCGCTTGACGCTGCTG	86.1 a.u.
CTAACGAAGGTTTGTGCGGTGGGTGACAAGCCAAGTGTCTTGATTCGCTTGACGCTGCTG	62.4 a.u.
CATATTTATGACTGTCACATGATATTGAGGTTACTCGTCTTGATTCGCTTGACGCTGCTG	1790 a.u.
CAAAACGTTCGTTTCTGCGTGCCAGTCTTCTCCACTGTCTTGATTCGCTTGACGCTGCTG	72.7 a.u.
AGTTCCTGCAGGGCCCACGTGGGGATACGGAGGCCCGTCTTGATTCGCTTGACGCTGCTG	453 a.u.

Some of these lines once more (set 2):
Sequence	fitted relative affinity [z-score]
TTAGGACTGGACTATCGGTTTGTGCTA	-0.217
TCACATGTTGCTCTCCGACTGTGCTAG	0.312
GACGGTTTCGGTTACGGGACGTGCTAG	13.8
TTAGATATCAGTATCCATTAGTGCTAG	0.408
TCACAATTTGCTTTAGTACTGTGCTAG	0.644
TTAGGTTTCGGTTTCGTTTAGTGCTAG	15.9
GACGGTTACCTTTTCCTGACGTGCTAG	0.59
TGGTATTTTTTTGTAATCGAGTGCTAG	1.15
GACGAGCTGAGTTTCGAGACGTGCTAG	3.98
GACGGACTGGGACTGGGGACGTGCTAG	-0.596
TAAGGTATCCTTATCCTTTAGTGCTAG	0.275
TCAATCGTCCCTTTGAGACTGTGCTAG	-0.105
